Experimental data of several laboratories.
Protocols differ between the studies behind these lines. Numbers after ± are the reported error.
NR1H2 ligand-binding domain: Oxysterols receptor LXR-beta, ligand-binding domain (NR1H2, Homo sapiens, UniProt P55055)
UniProt P55055, sequence (whole entry, looked up): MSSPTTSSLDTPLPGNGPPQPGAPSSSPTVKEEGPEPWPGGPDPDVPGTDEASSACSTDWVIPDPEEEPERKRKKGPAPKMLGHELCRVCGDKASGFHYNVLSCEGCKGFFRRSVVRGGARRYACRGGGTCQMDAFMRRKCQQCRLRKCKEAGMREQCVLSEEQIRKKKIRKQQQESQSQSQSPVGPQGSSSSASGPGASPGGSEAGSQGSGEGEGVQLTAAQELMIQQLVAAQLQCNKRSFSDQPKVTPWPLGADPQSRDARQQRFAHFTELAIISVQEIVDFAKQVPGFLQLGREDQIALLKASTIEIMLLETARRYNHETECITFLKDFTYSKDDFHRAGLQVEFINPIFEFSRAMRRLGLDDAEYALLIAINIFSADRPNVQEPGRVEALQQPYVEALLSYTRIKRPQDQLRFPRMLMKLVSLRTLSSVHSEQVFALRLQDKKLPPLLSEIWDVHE
FFAR3: Free fatty acid receptor 3 (FFAR3, Homo sapiens, UniProt O14843)
UniProt O14843, sequence (whole entry, looked up): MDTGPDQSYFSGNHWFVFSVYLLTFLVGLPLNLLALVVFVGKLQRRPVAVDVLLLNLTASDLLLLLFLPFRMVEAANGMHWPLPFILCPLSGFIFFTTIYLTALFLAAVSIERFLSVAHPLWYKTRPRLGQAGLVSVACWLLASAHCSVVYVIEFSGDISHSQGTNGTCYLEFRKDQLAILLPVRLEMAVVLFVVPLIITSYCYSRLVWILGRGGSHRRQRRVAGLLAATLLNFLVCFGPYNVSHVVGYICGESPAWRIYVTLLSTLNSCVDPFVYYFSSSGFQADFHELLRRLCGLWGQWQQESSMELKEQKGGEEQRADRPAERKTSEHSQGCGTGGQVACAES
CXCR4: C-X-C chemokine receptor type 4 (CXCR4, Homo sapiens, UniProt P61073)
Thyrotropin-releasing hormone receptor: Thyrotropin-releasing hormone receptor (Mus musculus, UniProt P21761)
UniProt P21761, sequence (whole entry, looked up): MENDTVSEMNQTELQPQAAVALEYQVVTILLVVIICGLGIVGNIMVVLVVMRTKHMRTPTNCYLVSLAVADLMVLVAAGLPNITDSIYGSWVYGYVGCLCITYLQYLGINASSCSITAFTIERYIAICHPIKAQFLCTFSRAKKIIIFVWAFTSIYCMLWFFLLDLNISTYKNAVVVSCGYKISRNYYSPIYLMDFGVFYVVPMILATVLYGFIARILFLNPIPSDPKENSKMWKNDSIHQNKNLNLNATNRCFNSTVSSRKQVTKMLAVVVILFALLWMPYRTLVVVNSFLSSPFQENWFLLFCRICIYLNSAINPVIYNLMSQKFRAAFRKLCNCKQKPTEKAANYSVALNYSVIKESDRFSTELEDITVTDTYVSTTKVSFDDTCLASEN
NPSR1 N107I: Neuropeptide S receptor (NPSR1, Homo sapiens, UniProt Q6W5P4, N107I)
UniProt Q6W5P4, sequence (whole entry, unmodified, looked up): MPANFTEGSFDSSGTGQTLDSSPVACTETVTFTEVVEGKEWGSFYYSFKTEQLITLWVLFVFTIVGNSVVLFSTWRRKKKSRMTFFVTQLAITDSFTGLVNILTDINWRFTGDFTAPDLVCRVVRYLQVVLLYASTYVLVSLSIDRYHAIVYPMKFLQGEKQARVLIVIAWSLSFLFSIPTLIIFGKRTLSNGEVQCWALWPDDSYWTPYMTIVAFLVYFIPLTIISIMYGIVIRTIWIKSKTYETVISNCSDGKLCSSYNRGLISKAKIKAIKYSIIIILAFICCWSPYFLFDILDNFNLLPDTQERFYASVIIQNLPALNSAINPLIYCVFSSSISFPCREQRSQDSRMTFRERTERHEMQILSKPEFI
Gonadotropin-releasing hormone receptor: Gonadotropin-releasing hormone receptor (Rattus norvegicus, UniProt P30969)
UniProt P30969, sequence (whole entry, looked up): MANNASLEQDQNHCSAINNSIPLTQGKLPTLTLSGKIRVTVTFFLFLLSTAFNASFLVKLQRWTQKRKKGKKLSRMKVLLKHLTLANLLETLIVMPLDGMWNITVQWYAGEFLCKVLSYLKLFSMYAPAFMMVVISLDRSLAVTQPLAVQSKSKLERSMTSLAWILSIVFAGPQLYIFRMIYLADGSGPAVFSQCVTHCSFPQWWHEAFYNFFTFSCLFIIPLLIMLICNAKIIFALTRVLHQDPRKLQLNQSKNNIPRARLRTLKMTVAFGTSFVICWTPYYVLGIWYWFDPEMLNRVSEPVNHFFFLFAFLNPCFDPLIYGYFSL
UniProt Q8K424, sequence (whole entry, looked up): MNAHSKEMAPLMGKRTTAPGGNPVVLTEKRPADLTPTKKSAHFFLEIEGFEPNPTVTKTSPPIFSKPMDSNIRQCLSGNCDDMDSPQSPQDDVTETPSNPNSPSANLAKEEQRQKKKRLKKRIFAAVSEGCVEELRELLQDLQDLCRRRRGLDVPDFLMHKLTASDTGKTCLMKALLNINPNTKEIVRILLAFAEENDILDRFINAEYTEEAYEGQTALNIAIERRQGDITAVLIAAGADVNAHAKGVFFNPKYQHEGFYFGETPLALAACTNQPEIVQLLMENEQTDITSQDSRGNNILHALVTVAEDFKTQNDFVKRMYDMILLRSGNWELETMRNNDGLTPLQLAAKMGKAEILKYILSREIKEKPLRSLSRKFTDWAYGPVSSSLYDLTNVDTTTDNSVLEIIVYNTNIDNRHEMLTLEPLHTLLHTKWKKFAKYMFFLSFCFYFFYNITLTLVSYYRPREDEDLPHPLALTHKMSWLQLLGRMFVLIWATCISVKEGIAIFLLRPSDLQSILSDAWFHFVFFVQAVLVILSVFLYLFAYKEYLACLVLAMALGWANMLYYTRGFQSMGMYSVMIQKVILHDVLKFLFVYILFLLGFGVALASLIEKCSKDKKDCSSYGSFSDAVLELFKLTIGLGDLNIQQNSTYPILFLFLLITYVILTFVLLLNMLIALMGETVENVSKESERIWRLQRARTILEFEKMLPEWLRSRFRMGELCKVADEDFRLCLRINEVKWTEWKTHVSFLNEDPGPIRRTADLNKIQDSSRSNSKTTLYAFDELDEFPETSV
UniProt P50391, sequence (whole entry, looked up): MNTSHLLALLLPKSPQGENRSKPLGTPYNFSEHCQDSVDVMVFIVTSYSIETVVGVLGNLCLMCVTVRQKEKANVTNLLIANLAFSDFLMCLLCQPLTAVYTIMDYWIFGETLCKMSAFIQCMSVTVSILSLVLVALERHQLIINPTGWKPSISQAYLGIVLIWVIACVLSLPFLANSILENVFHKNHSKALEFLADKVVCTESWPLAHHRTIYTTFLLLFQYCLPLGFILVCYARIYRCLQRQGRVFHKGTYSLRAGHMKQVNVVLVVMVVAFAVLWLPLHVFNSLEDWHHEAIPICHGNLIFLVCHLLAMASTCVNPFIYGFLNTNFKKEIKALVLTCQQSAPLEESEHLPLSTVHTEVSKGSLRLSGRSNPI
UniProt Q60755, sequence (whole entry, looked up): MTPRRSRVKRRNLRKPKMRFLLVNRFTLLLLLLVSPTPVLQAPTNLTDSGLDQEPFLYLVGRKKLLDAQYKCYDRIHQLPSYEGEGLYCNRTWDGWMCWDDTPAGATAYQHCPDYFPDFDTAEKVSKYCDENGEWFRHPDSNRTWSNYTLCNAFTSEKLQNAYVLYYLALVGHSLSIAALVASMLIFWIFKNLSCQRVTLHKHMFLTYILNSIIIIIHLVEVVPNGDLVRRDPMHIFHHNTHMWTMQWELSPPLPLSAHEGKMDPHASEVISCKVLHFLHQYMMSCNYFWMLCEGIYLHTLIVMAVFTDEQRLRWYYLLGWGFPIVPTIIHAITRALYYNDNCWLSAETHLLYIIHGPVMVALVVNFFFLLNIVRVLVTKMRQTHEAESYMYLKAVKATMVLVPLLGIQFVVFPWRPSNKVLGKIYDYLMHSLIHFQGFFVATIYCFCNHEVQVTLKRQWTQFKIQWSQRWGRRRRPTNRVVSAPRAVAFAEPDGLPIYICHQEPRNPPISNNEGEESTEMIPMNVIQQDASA
UniProt P43119, sequence (whole entry, looked up): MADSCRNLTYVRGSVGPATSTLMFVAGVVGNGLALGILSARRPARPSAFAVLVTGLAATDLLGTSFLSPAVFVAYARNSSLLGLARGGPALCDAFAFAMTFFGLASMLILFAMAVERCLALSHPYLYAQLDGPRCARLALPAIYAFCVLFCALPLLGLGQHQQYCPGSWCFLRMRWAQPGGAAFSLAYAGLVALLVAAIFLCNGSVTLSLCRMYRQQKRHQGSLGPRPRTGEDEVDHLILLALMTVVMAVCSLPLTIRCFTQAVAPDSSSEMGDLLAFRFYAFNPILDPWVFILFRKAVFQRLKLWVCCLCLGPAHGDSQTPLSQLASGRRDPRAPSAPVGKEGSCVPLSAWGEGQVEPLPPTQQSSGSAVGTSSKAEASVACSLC
UniProt P47895, sequence (whole entry, looked up): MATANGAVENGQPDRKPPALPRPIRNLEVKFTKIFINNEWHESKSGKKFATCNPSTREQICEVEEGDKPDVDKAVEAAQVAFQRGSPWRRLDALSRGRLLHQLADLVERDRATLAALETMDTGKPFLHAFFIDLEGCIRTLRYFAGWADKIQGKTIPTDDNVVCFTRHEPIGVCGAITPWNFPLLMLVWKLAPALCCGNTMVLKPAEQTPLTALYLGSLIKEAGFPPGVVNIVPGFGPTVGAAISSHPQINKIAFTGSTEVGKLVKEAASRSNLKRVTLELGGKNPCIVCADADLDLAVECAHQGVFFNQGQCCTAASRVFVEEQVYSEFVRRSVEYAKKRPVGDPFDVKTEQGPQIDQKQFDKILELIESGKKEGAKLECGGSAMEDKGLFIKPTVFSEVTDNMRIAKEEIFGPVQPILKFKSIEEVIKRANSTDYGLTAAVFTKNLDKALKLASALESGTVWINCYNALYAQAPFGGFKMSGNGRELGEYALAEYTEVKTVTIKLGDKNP
UniProt Q9WTJ5, sequence (whole entry, looked up): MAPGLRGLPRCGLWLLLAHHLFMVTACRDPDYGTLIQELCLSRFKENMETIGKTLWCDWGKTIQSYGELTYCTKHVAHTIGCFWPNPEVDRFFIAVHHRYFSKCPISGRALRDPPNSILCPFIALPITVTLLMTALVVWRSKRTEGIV

SMILES	target or system	assay	test system	conditions	endpoint	result
CCCC[C@H](NC(=O)[C@H](CO)NC(=O)[C@H](CC(N)=O)NC(=O)[C@H](CC(C)C)NC(=O)[C@H](Cc1c[nH]cn1)NC(=O)[C@H](CCCCN)NC(=O)CNC(=O)[C@H](CC(C)C)NC(=O)[C@H](CC(N)=O)NC(=O)[C@H](Cc1c[nH]cn1)NC(=O)[C@H](CCCC)NC(=O)[C@H](CC(C)C)NC(=O)[C@H](CCC(N)=O)NC(=O)[C@@H](NC(=O)[C@H](CCC(=O)O)NC(=O)[C@H](CO)NC(=O)[C@@H](NC(=O)[C@@H](N)CO)C(C)C)[C@@H](C)CC)C(=O)N[C@@H](CCC(=O)O)C(=O)N[C@@H](CCCNC(=N)N)C(=O)N[C@H](C(=O)N[C@@H](CCC(=O)O)C(=O)N[C@@H](Cc1c[nH]c2ccccc12)C(=O)N[C@@H](CC(C)C)C(=O)N[C@@H](CCCNC(=N)N)C(=O)N[C@@H](CCCCN)C(=O)N[C@@H](CCCCN)C(=O)N[C@@H](CC(C)C)C(=O)N[C@@H](CCC(N)=O)C(=O)N[C@@H](CC(=O)O)C(=O)N[C@H](C(=O)N[C@@H](Cc1c[nH]cn1)C(=O)N[C@@H](CC(N)=O)C(=O)N[C@@H](Cc1ccccc1)C(=O)N[C@H](C(=O)N[C@@H](C)C(=O)N[C@@H](CC(C)C)C(=O)O)C(C)C)C(C)C)C(C)C	PTH1R (Homo sapiens, UniProt Q03431)	cAMP, agonist	–	–	EC50	0.000209 µM
N#Cc1ccc(COc2cccc(C3CCN(Cc4nc5ccc(C(=O)O)cc5n4C[C@@H]4CCO4)CC3)n2)c(F)c1	Glucagon-like peptide 1 receptor (Oryctolagus cuniculus, UniProt G1SGD4)	cAMP accumulation	CHO cells expressing target	free concentration	EC50	> 20 µM
CN(C(=O)c1c(F)cccc1Cl)c1ccc(C(O)(C(F)(F)F)C(F)(F)F)cc1	NR1H2 ligand-binding domain	agonist	–	concentration not given	EC50	0.4 ± 0.01 µM
C[C@@H]1NC(=O)[C@H](CC(N)=O)NC(=O)[C@H](Cc2c[nH]c3ccccc23)NC(=O)[C@H](CCCNC(=N)N)NC(=O)[C@@H](Cc2ccccc2)NC(=O)[C@H](Cc2c[nH]cn2)NC(=O)[C@@H](NC(=O)[C@@H](N)Cc2ccc(O)cc2)Cn2cc(nn2)C[C@@H](C(=O)N[C@@H](Cc2ccc(O)cc2)C(N)=O)NC(=O)[C@H](Cc2ccccc2)NC1=O	Melanocortin receptor 5 (Mus musculus, UniProt P41149)	agonist	–	–	EC50	0.016 ± 0.00066 µM
[64Cu+2].c1cnc(CNCc2ccc(CN3CCCN4CCNCCCN(CC4)CC3)cc2)nc1	CXCR4 (human)	–	NOD/SCID mice, U87 xenografts, small intestine	90 min post-injection	tissue uptake	6.49 ± 1.12 %ID/g
COC(=O)c1cnc(-c2cnccn2)cc1C(=O)OC.COC(=O)c1cnc(-c2cnccn2)cc1C(=O)OC.F[P-](F)(F)(F)(F)F.[Ag+]	calf thymus DNA	ethidium bromide displacement	–	–	quenching rate constant	1.5e+11 M⁻¹ s⁻¹
C#CCC(=O)O	FFAR3	agonist	–	–	EC50	> 10000 µM
CCOc1ccccc1-c1nnc2n1N=C(c1ccc(N)cc1)CS2	CXCR4	β-arrestin recruitment, agonist	–	–	EC50	> 10 µM
CCCC[C@H](NC(=O)CCCCCCCNC(=O)CN1CCN(CC(=O)O)CCN(CC(=O)O)CC1)C(=O)N[C@H]1CC(=O)NCCCC[C@@H](C(N)=O)NC(=O)[C@H](Cc2c[nH]c3ccccc23)NC(=O)[C@H](CCCNC(=N)N)NC(=O)[C@@H](Cc2ccccc2)NC(=O)[C@H](Cc2c[nH]cn2)NC1=O [copper-64 labelled]	–	–	C57 mice, intestine	intravenous, 0.37 MBq, 2 h	tissue uptake	3.78 ± 0.51 %ID
[64Cu+2].c1ccc(CNCc2ccc(CN3CCCN4CCNCCCN(CC4)CC3)cc2)nc1	CXCR4 (human)	–	NOD/SCID mice, U87 xenografts, U87 control tumour	60 min post-injection	tissue uptake	2.54 ± 0.47 %ID/g
CC(C)n1cnc(C[C@H](NC(=O)C2CCCCN2)C(=O)N2CCC[C@H]2C(N)=O)c1 (stereo partly shown)	Thyrotropin-releasing hormone receptor	calcium signal, agonist, fluorescence	–	–	EC50	0.75 µM
CC(C)C[C@H](NC(=O)[C@H](CCCNC(=N)N)NC(=O)[C@H](Cc1ccc(O)cc1)NC(=O)CCCCCCC(=O)N[C@@H](Cc1ccc(O)cc1)C(=O)N[C@@H](CCCNC(=N)N)C(=O)N[C@@H](CC(C)C)C(=O)NN(CCCNC(=N)N)C(=O)N[C@@H](Cc1ccc(O)cc1)C(N)=O)C(=O)NN(CCCNC(=N)N)C(=O)N[C@@H](Cc1ccc(O)cc1)C(N)=O	NPY4R (Homo sapiens, UniProt P50391)	calcium signal, agonist	–	–	EC50	0.542 µM
O=C1CC[C@H](N2Cc3cc(-c4ccn5nccc5n4)ccc3C2=O)C(=O)N1	Cereblon/Casein kinase I alpha (CSNK1A1/CRBN, Homo sapiens, UniProt P48729+Q96SW2)	degrader	MOLT-4 CSNK1A1-HiBiT	24 h	DC50	141 nM
COc1cc(-c2cnc3nc2NCCCNS(=O)(=O)c2cc(ccc2OC)N3)ccc1F	EPHA4 (Homo sapiens, UniProt P54764)	target engagement in cells, BRET	–	–	EC50	0.037 µM
Cc1cc(O)c(C=O)c2c1C(=O)Oc1c(CO)c(O)c3c(c1O2)C(O)OC3=O (stereo not shown)	–	–	streptozotocin-induced diabetic male rats, plasma	10 mg/kg, 5 weeks	fasting plasma glucose	190 ± 7.29 mg/dL
CN(C(=O)c1c(F)cc(F)cc1F)c1ccc(C(O)(C(F)(F)F)C(F)(F)F)cc1	NR1H2 ligand-binding domain	agonist	–	concentration not given	EC50	1.3 ± 0.03 µM
O=C(O)COc1cccc(NC(=O)c2cc(-c3cccc(F)c3)ccc2F)c1	PTGIR (Homo sapiens, UniProt P43119)	calcium signal, agonist, fluorescence	–	–	EC50	> 10 µM

SMILES	target or system	assay	test system	conditions	endpoint	result
C=CCc1cccc(CNc2nc3ccccc3n2CCC)c1O	ALDH1A3 (Homo sapiens, UniProt P47895)	enzyme activity	–	pH 7.5, 25 °C, together with: propionaldehyde 100 µM, NAD+ 200 µM	EC50	0.64 ± 0.16 µM
N=C(N)NCCC[C@H](NC(=O)[C@H](Cc1ccccc1)NC(=O)[C@@H](N)CO)C(=O)N[C@@H](CC(N)=O)C(N)=O	NPSR1 N107I	calcium signal, agonist, fluorescence	–	–	EC50	0.00243 µM
NCCOB(c1ccccc1)c1ccccc1	Trpv3 (Mus musculus, UniProt Q8K424)	ion current, agonist, inside-out patch clamp	–	with EGTA	EC50	51 ± 11 µM
CNC(=O)C1CCN(c2cc(C)c(F)cc2NC(=O)c2ccc(-c3cc(O)ccc3C)c(C)c2)CC1	EPHB2 (Homo sapiens, UniProt P29323)	cell-free assay, TR-FRET	–	–	Ki	1.3 nM
C=CC(=O)Nc1cc(Nc2nccc(-c3cn(C)c4ccccc34)n2)c(OCC(F)(F)F)nc1N(C)CCN(C)C	CYP2C19 (Homo sapiens, UniProt P33261)	enzyme activity, inhibitor	human, liver microsomes	33.3 µM	activity vs control	93.1%
CCCCC(=O)O	FFAR3	agonist	–	–	EC50	28.8 µM
O=C([O-])CN1CCN(CC(=O)[O-])CCN(CC(=O)NCCc2ccc3c(c2)C2C=CCC2C(c2cc4c(cc2Br)OCO4)N3)CCN(CC(=O)[O-])CC1.[111In+3] (stereo not shown)	Hec50 tumour model	–	host not given, blood	2 h, tumour-bearing	tracer uptake	1.21 %ID/g
CC[C@H](C)[C@H](NC(=O)[C@H](CCC(N)=O)NC(=O)[C@H](Cc1c[nH]cn1)NC(=O)[C@H](C)NC(=O)[C@H](CC(C)C)NC(=O)[C@H](CCCCN)NC(=O)[C@H](CCC(N)=O)NC(=O)[C@@H](NC(=O)[C@@H](NC(=O)[C@@H]1CSSC[C@H](NC(=O)CNC(=O)[C@H](Cc2ccccc2)NC(=O)[C@H](CO)NC(=O)[C@H](CCCNC(=N)N)NC(=O)[C@H](CC(C)C)NC(=O)CNC(=O)[C@H](CCC(N)=O)NC(=O)[C@H](Cc2ccccc2)NC(=O)[C@H](CC(N)=O)NC(=O)[C@H](CC(N)=O)NC(=O)[C@H](CCSC)NC(=O)[C@H](CO)NC(=O)[C@H](CCC(N)=O)NC(=O)[C@H](CCCNC(=N)N)NC(=O)[C@@H](N)Cc2ccc(O)cc2)C(=O)N[C@@H](CCCNC(=N)N)C(=O)N[C@@H](Cc2ccccc2)C(=O)NCC(=O)N[C@@H]([C@@H](C)O)C(=O)N1)[C@@H](C)O)C(C)C)C(=O)N[C@@H](Cc1ccc(O)cc1)C(=O)N[C@@H](CCC(N)=O)C(=O)N[C@@H](Cc1ccccc1)C(=O)N[C@H](C(=O)N[C@@H](CC(=O)O)C(=O)N[C@@H](CCCCN)C(=O)N[C@@H](CC(=O)O)C(=O)N[C@@H](CCCCN)C(=O)N[C@@H](CC(=O)O)C(=O)N[C@@H](CC(N)=O)C(=O)N[C@H](C(=O)N[C@@H](C)C(=O)N1CCC[C@H]1C(=O)N[C@@H](CCCNC(=N)N)C(=O)N[C@@H](CO)C(=O)N[C@@H](CCCCN)C(=O)N[C@H](C(=O)N[C@@H](CO)C(=O)N1CCC[C@H]1C(=O)N[C@@H](CCC(N)=O)C(=O)NCC(=O)N[C@@H](Cc1ccc(O)cc1)C(N)=O)[C@@H](C)CC)C(C)C)[C@@H](C)O	Calcr/Ramp1 (Mus musculus, UniProt Q60755+Q9WTJ5)	cAMP production, agonist	COS-7, transfected	15 min, 37 °C, together with: IBMX 1 mM	EC50	0.0977 µM
Nc1ncnc2c1ncn2C1OC(COP(=O)(O)OP(=O)(O)OCC2OC(O)C(O)C2O)C(O)C1O (stereo not shown)	TRPM2 (Nematostella vectensis, UniProt A7T1N0)	channel activation, activator, inside-out patch clamp	–	global fit with ε-analogue, together with: 125 µM Ca2+	EC50	1.6 ± 0.2 µM
Cn1cnc(C[C@H](NC(=O)c2cnccn2)C(=O)N2CCC[C@H]2C(N)=O)c1	Thyrotropin-releasing hormone receptor	calcium signal, agonist, fluorescence	–	–	EC50	0.414 µM
CC(C)C[C@H](NC(=O)[C@@H](Cc1c[nH]c2ccccc12)NC(=O)[C@H](Cc1ccc(O)cc1)NC(=O)[C@H](CO)NC(=O)[C@H](Cc1c[nH]c2ccccc12)NC(=O)[C@H](Cc1c[nH]cn1)NC(=O)[C@@H]1CCC(=O)N1)C(=O)N[C@@H](CCCNC(=N)N)C(=O)N1CCC[C@H]1C(=O)NCC(N)=O	Gonadotropin-releasing hormone receptor	inositol phosphate accumulation, agonist	WPE-1-NB26-3 expressing Gonadotropin-releasing hormone receptor	60 min, 37 °C, together with: 10 mM LiCl	EC50	0.0002 ± 3e-05 µM
CC(=O)N[C@H](C(=O)N[C@H](C(=O)N[C@@H](CCCNC(=N)N)C(=O)N1Cc2ccccc2C[C@H]1C(=O)N[C@@H](Cc1ccccc1)C(N)=O)C1CCCCC1)C(C)C	human PBMC	Bio-Plex multiplex, refers to: IP-10	–	250 µg/mL, 24 h	cytokine level	1210 ± 961 pg/mL
CN(C(=O)c1cccc2ccccc12)c1ccc(C(O)(C(F)(F)F)C(F)(F)F)cc1	NR1H2 ligand-binding domain	agonist	–	concentration not given	EC50	2.23 ± 0.02 µM
O=C(O)CC1CC1	FFAR3	agonist	–	–	EC50	209 µM
CN(C)CCCC[C@H](NC(=O)[C@H](Cc1ccccc1)NC(=O)[C@@H](N)CO)C(=O)N[C@@H](CC(N)=O)C(N)=O	NPSR1 N107I	calcium signal, agonist, fluorescence	–	–	EC50	0.0435 µM
COc1ccccc1C1=Nn2c(nnc2-c2ccccc2OC)SC1	CXCR4	β-arrestin recruitment, agonist	–	–	EC50	> 80 µM
CC(C)C[C@H](NC(=O)[C@@H](Cc1c[nH]c2ccccc12)NC(=O)[C@H](Cc1c[nH]cn1)NC(=O)[C@H](CO)NC(=O)[C@H](Cc1c[nH]c2ccccc12)NC(=O)[C@H](Cc1c[nH]cn1)NC(=O)[C@@H]1CCC(=O)N1)C(=O)N[C@@H](CCCNC(=N)N)C(=O)N1CCC[C@H]1C(=O)NCC(N)=O	Gonadotropin-releasing hormone receptor	inositol phosphate accumulation, agonist	WPE-1-NB26-3 expressing Gonadotropin-releasing hormone receptor	60 min, 37 °C, together with: 10 mM LiCl	EC50	0.0004 ± 0.0001 µM

Some of these lines once more:
SMILES	target or system	assay	test system	conditions	endpoint	result
CNC(=O)C1CCN(c2cc(C)c(F)cc2NC(=O)c2ccc(-c3cc(O)ccc3C)c(C)c2)CC1	EPHB2 (Homo sapiens, UniProt P29323)	cell-free assay, TR-FRET	–	–	Ki	1.3 nM
O=C(O)CC1CC1	FFAR3	agonist	–	–	EC50	209 µM
CN(C(=O)c1c(F)cc(F)cc1F)c1ccc(C(O)(C(F)(F)F)C(F)(F)F)cc1	NR1H2 ligand-binding domain	agonist	–	concentration not given	EC50	1.3 ± 0.03 µM
N#Cc1ccc(COc2cccc(C3CCN(Cc4nc5ccc(C(=O)O)cc5n4C[C@@H]4CCO4)CC3)n2)c(F)c1	Glucagon-like peptide 1 receptor (Oryctolagus cuniculus, UniProt G1SGD4)	cAMP accumulation	CHO cells expressing target	free concentration	EC50	> 20 µM
CN(C)CCCC[C@H](NC(=O)[C@H](Cc1ccccc1)NC(=O)[C@@H](N)CO)C(=O)N[C@@H](CC(N)=O)C(N)=O	NPSR1 N107I	calcium signal, agonist, fluorescence	–	–	EC50	0.0435 µM
COC(=O)c1cnc(-c2cnccn2)cc1C(=O)OC.COC(=O)c1cnc(-c2cnccn2)cc1C(=O)OC.F[P-](F)(F)(F)(F)F.[Ag+]	calf thymus DNA	ethidium bromide displacement	–	–	quenching rate constant	1.5e+11 M⁻¹ s⁻¹
